Measured values gathered from unrelated publications.
Values joined by “and” are separate records of one study, mostly repeats; a detail may differ. Numbers after ± are the reported error.
BRD9: Bromodomain-containing protein 9 (BRD9, Homo sapiens, UniProt Q9H8M2)
Sequence of UniProt Q9H8M2 (whole entry, looked up): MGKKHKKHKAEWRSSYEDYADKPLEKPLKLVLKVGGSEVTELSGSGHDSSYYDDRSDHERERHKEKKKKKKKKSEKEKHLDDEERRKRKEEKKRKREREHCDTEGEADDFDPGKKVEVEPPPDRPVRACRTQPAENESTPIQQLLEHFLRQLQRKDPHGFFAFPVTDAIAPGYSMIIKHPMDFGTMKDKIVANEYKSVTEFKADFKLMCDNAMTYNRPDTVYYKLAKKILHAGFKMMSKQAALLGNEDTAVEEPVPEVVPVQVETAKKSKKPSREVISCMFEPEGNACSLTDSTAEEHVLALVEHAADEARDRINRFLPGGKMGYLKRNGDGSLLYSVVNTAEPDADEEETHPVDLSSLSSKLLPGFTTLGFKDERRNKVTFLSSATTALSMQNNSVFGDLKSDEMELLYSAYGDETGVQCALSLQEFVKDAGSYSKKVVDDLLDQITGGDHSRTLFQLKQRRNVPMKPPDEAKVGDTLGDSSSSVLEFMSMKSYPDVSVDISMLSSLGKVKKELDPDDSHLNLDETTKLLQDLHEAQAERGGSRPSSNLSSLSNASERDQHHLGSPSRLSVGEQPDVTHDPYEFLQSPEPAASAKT
Protein AF-9 with DOT1L: Protein AF-9, with DOT1L (Homo sapiens, UniProt P42568)
Sequence of UniProt P42568 (whole entry, looked up): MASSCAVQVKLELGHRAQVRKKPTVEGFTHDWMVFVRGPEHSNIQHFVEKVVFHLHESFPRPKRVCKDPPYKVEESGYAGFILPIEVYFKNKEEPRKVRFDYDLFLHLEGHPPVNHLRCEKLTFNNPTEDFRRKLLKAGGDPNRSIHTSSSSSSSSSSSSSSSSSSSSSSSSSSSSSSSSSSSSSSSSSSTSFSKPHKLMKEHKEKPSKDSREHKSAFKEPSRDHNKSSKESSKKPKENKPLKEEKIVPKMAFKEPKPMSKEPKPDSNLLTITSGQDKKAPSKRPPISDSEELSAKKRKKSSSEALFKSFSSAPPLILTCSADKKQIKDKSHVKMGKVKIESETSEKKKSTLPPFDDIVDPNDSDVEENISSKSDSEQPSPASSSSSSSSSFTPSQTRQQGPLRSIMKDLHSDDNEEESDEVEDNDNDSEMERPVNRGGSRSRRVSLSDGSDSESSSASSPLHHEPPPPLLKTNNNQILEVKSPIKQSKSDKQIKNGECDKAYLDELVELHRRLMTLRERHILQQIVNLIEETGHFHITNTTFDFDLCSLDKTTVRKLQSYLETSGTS
CD274: Programmed cell death 1 ligand 1 (CD274, Homo sapiens, UniProt Q9NZQ7)
Sequence of UniProt Q01815 (whole entry, looked up): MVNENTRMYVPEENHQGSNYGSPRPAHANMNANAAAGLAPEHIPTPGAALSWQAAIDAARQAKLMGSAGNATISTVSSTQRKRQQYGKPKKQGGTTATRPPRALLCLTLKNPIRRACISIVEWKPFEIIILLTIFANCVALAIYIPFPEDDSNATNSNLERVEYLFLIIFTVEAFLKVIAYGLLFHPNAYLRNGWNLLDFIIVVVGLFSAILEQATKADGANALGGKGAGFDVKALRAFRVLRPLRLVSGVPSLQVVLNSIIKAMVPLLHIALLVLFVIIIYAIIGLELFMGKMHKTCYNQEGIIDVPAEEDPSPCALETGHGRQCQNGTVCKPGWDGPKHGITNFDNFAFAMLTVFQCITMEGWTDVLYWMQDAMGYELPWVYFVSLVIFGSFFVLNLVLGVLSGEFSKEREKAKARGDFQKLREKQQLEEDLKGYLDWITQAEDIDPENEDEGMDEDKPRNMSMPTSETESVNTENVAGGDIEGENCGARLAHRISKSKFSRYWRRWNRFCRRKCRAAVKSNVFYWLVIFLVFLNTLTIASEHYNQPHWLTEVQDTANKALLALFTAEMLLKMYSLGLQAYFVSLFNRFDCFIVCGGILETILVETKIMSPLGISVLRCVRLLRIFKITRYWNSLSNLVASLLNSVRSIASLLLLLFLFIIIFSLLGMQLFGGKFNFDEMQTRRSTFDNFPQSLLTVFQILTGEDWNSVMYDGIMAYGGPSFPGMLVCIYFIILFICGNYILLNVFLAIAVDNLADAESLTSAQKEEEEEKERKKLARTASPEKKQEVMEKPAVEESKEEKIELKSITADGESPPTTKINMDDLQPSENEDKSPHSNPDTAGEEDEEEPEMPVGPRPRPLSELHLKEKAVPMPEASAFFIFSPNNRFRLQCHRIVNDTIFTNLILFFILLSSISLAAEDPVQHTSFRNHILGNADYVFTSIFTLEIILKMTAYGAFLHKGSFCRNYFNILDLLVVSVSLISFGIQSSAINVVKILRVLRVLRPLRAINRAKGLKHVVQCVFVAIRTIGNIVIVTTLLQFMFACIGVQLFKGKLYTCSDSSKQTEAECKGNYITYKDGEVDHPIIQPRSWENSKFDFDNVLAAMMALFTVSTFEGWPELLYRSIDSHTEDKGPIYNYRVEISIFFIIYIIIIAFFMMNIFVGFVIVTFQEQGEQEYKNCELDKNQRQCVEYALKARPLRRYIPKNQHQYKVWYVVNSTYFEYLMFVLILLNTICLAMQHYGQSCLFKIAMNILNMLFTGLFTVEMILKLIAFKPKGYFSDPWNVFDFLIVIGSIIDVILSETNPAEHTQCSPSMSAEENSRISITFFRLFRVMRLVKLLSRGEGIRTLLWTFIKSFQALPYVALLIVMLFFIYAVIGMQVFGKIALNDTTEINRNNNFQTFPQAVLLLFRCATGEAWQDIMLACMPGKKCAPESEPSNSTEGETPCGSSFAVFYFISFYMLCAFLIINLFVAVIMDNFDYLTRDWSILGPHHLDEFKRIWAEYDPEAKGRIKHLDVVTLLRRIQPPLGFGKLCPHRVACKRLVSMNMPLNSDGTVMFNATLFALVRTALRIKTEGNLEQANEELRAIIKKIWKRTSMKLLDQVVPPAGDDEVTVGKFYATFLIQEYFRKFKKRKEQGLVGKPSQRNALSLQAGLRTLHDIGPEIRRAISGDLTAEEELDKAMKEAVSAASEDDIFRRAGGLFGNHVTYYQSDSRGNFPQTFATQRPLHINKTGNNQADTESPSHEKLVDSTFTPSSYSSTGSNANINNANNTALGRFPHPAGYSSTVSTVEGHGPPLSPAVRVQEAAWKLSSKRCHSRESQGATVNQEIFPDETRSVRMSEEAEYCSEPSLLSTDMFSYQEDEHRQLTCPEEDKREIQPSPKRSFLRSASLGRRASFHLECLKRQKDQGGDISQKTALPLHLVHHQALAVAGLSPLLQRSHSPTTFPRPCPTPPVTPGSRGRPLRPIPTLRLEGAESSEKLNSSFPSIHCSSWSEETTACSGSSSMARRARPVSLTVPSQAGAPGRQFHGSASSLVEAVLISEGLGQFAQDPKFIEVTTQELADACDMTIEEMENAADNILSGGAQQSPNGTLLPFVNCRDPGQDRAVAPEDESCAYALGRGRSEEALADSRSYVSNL
Sequence of UniProt Q9NZQ7 (whole entry, looked up): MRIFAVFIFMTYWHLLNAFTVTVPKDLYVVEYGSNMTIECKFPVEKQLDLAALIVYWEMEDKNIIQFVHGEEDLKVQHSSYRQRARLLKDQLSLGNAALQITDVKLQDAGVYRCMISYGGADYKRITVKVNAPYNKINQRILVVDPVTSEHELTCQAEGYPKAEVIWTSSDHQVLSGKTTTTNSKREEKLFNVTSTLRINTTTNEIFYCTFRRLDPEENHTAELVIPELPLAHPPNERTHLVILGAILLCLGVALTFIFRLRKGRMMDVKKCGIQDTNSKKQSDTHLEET
Sequence of UniProt Q13233 (whole entry, looked up): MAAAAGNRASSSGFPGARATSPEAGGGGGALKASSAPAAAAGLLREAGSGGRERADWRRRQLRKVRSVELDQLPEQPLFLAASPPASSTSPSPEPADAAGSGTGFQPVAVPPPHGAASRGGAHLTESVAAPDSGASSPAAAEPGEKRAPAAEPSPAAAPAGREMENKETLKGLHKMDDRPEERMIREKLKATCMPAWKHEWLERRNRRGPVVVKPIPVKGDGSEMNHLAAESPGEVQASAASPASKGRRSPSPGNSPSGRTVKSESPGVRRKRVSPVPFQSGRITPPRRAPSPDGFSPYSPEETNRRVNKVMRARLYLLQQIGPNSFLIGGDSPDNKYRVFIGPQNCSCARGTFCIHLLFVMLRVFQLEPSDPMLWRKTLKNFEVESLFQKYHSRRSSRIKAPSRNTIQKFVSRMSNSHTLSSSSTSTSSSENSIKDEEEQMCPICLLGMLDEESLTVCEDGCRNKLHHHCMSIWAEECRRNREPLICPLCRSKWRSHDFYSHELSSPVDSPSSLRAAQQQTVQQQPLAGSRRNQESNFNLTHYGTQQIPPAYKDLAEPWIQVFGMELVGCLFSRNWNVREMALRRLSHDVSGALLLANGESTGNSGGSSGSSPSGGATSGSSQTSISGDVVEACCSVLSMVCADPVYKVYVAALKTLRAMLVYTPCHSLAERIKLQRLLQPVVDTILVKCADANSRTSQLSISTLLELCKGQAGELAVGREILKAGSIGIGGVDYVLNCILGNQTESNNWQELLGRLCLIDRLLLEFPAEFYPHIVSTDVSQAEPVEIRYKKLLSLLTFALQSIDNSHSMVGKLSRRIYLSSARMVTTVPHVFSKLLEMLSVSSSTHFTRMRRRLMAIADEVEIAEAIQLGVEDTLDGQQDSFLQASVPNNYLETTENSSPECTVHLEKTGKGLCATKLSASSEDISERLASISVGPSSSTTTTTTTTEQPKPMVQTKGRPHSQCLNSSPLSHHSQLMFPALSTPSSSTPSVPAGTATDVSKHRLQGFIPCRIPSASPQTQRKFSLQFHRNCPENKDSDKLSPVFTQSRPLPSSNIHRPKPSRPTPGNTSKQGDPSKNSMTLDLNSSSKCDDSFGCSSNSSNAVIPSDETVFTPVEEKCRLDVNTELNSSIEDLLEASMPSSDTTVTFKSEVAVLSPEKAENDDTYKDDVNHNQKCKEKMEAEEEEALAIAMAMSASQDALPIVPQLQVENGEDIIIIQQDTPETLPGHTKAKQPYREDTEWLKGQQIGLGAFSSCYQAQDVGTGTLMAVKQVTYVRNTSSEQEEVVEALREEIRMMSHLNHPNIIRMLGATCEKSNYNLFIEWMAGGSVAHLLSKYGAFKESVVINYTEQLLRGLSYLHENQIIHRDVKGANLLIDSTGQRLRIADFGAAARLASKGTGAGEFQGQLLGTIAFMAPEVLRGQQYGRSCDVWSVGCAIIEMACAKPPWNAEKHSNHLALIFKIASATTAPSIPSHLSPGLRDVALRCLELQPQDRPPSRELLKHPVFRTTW

With CC[C@@H]1[C@H](F)C(=O)N[C@@H]1COc1nccc2cc(C(N)=O)c(OC)cc12 the inhibition was -0.254% (Serine/threonine-protein kinase Chk2 (CHEK2, Homo sapiens, UniProt O96017); ATP-site probe binding, ActivX profiling; THP-1 cell lysate; 0.2 mM, Lys2 site).
For CC(C)c1noc2ncc(C(=O)c3ccccc3O)cc12, the inhibition was 7.71% and 15.3% and 27.3% and 7.33% and 20.3% (Voltage-dependent L-type calcium channel subunit alpha-1C (Cacna1c, Mus musculus, UniProt Q01815); ion current, inhibitor, whole-cell patch clamp; 10 µM).
COc1cc(-c2cc(C(C)=O)n3ccccc23)c(OC)cc1CN1CC(O)C1 has an inhibition of 94.5% (BRD9; AlphaScreen; 1 µM).
c1ccc(COc2ccc(-c3ccc4ncc(OCC5CCNCC5)nc4c3)cc2)cc1 has an inhibition of 0 to 21% (Protein AF-9 with DOT1L; DOT1L binding, AlphaLISA; 10 µM).
COc1ccc(C(=O)/C=C/c2cccc(-c3cccc(-c4ccc(CNCCO)c(OC)n4)c3C)c2)cc1 has an inhibition of 6.9 ± 2.3% (CD274; binding, inhibitor, HTRF; 1 µM).
With COCc1cc(OC)c(-c2cc(C(C)=O)n3ccccc23)cc1OC the inhibition was 94.4% (BRD9; AlphaScreen; 1 µM).
With c1ccc(Nc2ccc3ncc(OCC4CCNCC4)nc3c2)cc1 the inhibition was 33% (Protein AF-9 with DOT1L; DOT1L binding, AlphaLISA; 10 µM).
COc1cc(-c2cc(C(C)=O)n3ccccc23)c(OC)cc1CN1CCOCC1 gave an inhibition of 93.5% (BRD9; AlphaScreen; 1 µM).
For [2H]c1cc(C)c(NC(=O)c2cnc(Nc3cc(N4CCCCC4)nc(C)n3)s2)c(Cl)c1, the inhibition was less than 30% (Proto-oncogene tyrosine-protein kinase receptor Ret (RET, Homo sapiens, UniProt P07949, G691S); 0.01 µM).
Ic1cccc2cnccc12 gave an inhibition of 10% (sodium channel site 2 (rat); radioligand binding, inhibitor; 10 µM).
The inhibition of O=C(c1ccc(F)cc1)N(Cc1ccccc1)C1CCCCC1 is reported as -5% (Gamma-aminobutyric acid type B receptor subunit 1 (GABBR1, Homo sapiens, UniProt Q9UBS5); 10 µM).
For Cn1cc(-c2cnc3ccc(NC(=O)Nc4ccc(F)c(Br)c4)cc3n2)cn1, the inhibition was 67.6% (Mitogen-activated protein kinase kinase kinase 1 (MAP3K1, Homo sapiens, UniProt Q13233); kinase binding, KiNativ profiling, item: Lys2 peptide; PANC-1 lysate; 10 µM).
CC(C)(C)c1ccc(Nc2ccc3ncc(OCC4CCNCC4)nc3c2)cc1 gave an inhibition of 37% (Protein AF-9 with DOT1L; DOT1L binding, AlphaLISA; 10 µM).
The inhibition of CCOCCOCCNC(=S)NCCCC[C@H](NS(C)(=O)=O)C(=O)N[C@H](C)C(=O)N[C@@H](CCCNC(=N)N)C(N)=O is reported as less than 5% (NAD-dependent protein deacetylase sirtuin-3, mitochondrial (SIRT3, Homo sapiens, UniProt Q9NTG7); enzyme activity, inhibitor; 10 µM).
The inhibition of COc1ccc(C(=O)/C=C/c2cccc(-c3cccc(-c4ccc(CNC[C@@H]5CCC(=O)N5)c(OC)n4)c3C)c2)cc1 is reported as 10.8 ± 1.2% (CD274; binding, inhibitor, HTRF; 1 µM).
The inhibition of COc1cc2nccc(Oc3ccc(NC(=O)c4cc5c(n(-c6ccccc6)c4=O)CCCC5=O)nc3)c2cc1OC is reported as 67 to 92% (Tyrosine-protein kinase receptor UFO (AXL, Homo sapiens, UniProt P30530); plasma inhibitory activity; human patients; 6 mg/day).
COc1cccc(F)c1Cn1cnc(-c2ccncc2)c1-c1ccc(F)cc1 gave an inhibition of 3% (Casein kinase I isoform delta (CSNK1D, Homo sapiens, UniProt P48730); inhibitor; 1 µM).

A few entries again:
COc1cc(-c2cc(C(C)=O)n3ccccc23)c(OC)cc1CN1CCOCC1 gave an inhibition of 93.5% (BRD9; AlphaScreen; 1 µM).
For [2H]c1cc(C)c(NC(=O)c2cnc(Nc3cc(N4CCCCC4)nc(C)n3)s2)c(Cl)c1, the inhibition was less than 30% (Proto-oncogene tyrosine-protein kinase receptor Ret (RET, Homo sapiens, UniProt P07949, G691S); 0.01 µM).
